Experimental data pooled from the literature.
Numbers after ± are the reported error.
Proteasome component C5/PSMB5: Proteasome component C5/PSMB5 (Homo sapiens, UniProt P20618+P28074)
Sequence of UniProt P20618 (whole entry, looked up): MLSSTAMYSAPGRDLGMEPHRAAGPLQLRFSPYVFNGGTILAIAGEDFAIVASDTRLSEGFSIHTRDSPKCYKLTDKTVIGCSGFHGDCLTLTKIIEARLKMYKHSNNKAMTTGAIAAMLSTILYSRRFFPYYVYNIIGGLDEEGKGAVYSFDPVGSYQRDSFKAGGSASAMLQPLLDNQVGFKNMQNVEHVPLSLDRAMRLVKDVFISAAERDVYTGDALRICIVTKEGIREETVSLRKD
Sequence of UniProt P28074 (whole entry, looked up): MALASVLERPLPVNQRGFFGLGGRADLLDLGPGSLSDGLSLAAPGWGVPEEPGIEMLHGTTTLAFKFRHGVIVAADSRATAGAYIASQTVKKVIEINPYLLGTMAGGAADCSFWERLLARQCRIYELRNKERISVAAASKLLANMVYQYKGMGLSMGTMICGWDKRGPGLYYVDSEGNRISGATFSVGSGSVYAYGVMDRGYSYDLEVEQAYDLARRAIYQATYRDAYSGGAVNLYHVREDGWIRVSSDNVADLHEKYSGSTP
TRPV1: Transient receptor potential cation channel subfamily V member 1 (TRPV1, Homo sapiens, UniProt Q8NER1)
Sequence of UniProt Q8NER1 (whole entry, looked up): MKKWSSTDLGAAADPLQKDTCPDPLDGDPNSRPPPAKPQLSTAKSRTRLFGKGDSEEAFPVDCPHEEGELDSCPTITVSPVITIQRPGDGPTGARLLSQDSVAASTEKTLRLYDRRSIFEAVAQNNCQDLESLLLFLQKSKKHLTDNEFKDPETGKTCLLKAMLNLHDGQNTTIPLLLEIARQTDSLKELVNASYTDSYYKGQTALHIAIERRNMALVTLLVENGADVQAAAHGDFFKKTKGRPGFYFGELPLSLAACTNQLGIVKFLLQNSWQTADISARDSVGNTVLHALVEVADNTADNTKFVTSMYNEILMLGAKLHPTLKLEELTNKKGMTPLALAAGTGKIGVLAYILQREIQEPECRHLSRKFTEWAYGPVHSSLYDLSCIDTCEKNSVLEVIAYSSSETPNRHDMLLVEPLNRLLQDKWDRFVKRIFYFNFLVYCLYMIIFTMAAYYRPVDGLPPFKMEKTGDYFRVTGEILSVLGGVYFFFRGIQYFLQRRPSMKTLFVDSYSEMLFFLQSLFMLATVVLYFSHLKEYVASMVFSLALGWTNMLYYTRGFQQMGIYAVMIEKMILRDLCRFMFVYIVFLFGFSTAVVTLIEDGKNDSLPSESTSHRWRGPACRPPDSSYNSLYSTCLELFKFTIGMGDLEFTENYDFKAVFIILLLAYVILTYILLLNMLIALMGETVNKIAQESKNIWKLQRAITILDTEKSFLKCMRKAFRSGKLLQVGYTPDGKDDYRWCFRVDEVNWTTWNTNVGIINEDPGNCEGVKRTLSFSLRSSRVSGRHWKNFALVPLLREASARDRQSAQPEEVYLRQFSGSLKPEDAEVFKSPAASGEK
Sequence of UniProt Q9UUJ1 (whole entry, looked up): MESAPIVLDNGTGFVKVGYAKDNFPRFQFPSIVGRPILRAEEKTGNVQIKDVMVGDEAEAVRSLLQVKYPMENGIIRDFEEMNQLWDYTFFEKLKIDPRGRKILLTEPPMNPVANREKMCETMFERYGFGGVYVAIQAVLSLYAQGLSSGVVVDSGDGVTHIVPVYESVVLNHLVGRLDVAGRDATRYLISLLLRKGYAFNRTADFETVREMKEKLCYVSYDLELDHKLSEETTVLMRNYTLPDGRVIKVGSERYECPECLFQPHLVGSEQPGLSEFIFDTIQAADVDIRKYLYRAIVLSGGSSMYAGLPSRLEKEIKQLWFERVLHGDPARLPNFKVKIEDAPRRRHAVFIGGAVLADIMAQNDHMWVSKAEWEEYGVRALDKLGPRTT
Sequence of UniProt Q96DB2 (whole entry, looked up): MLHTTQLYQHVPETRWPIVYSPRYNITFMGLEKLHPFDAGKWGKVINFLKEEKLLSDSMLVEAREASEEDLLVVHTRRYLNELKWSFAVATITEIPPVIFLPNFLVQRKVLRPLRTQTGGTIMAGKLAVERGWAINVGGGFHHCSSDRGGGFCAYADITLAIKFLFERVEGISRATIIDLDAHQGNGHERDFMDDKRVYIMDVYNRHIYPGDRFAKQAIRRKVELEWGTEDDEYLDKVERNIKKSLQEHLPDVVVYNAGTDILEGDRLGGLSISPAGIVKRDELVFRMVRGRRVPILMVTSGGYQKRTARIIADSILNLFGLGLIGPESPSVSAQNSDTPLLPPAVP
Sequence of UniProt Q4U2R8 (whole entry, looked up): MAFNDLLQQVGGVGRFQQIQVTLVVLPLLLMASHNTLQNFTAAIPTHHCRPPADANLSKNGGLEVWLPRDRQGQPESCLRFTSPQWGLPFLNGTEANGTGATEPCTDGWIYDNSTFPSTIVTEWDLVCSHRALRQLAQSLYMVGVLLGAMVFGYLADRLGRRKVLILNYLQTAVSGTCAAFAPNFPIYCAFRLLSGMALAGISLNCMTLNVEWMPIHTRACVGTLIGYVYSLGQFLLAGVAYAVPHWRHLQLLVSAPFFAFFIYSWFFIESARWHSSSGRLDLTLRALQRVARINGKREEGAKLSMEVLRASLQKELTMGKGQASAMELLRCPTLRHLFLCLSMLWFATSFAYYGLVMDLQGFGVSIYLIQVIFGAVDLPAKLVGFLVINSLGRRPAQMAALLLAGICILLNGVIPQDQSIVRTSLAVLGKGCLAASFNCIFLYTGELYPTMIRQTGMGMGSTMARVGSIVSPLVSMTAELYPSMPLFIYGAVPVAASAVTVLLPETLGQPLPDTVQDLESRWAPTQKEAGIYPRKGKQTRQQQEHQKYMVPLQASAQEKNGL
Sequence of UniProt P16389 (whole entry, looked up): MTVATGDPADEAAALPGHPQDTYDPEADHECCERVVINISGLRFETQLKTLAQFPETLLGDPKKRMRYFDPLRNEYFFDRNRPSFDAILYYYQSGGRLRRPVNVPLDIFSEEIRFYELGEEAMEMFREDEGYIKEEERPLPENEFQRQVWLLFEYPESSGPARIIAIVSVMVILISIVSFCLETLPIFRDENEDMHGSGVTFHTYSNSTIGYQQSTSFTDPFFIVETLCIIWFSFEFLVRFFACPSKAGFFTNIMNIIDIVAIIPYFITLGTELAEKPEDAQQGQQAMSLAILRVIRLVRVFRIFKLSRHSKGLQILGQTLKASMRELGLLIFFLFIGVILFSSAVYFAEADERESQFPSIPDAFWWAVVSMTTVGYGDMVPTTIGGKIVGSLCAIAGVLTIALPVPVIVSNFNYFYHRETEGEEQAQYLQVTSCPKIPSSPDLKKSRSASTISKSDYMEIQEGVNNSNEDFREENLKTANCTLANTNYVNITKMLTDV
Sequence of UniProt B2RXH2 (whole entry, looked up): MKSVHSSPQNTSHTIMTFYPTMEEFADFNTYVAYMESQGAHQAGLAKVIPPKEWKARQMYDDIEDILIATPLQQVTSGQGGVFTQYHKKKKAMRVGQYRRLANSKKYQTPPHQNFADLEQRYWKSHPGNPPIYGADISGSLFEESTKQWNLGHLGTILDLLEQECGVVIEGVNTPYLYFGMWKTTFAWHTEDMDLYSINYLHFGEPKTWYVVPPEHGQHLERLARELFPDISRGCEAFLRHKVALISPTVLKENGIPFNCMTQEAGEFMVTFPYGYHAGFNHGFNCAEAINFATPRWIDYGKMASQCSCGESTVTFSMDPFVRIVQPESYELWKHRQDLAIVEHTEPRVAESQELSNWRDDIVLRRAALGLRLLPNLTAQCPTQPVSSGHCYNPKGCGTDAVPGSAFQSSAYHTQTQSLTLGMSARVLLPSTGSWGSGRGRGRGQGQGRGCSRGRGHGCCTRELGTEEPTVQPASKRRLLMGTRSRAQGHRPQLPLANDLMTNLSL
Sequence of UniProt P97612 (whole entry, looked up): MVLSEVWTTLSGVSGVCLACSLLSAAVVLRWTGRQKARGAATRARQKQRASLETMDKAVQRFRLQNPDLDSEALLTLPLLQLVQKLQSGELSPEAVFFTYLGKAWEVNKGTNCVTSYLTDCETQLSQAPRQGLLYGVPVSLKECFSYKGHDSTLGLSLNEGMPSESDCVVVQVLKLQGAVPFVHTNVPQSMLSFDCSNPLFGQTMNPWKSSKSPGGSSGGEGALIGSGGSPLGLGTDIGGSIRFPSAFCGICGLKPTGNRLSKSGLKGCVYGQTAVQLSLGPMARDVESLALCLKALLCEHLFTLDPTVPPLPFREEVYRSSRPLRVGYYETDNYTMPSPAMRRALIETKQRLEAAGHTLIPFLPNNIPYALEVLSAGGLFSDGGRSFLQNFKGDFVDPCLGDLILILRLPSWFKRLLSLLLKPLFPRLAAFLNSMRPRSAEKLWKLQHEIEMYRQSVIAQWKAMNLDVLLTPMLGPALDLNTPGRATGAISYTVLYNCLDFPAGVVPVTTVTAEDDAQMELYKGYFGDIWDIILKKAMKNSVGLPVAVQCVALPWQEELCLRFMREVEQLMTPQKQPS
Sequence of UniProt P04746 (whole entry, looked up): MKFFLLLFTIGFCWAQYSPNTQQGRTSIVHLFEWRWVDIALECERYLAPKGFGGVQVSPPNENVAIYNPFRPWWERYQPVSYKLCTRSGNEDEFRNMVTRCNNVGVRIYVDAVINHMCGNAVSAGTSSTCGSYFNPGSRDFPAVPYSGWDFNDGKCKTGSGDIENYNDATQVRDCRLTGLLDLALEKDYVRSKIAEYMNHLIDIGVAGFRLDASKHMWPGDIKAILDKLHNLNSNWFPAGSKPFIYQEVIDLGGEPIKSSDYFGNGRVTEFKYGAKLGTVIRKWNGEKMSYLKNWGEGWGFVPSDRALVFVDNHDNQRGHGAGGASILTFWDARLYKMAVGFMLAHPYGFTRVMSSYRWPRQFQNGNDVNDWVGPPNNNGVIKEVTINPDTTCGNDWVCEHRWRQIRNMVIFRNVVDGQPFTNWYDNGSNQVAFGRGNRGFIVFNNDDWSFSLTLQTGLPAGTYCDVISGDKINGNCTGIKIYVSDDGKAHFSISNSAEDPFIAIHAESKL
Sequence of UniProt Q9HT15 (whole entry, looked up): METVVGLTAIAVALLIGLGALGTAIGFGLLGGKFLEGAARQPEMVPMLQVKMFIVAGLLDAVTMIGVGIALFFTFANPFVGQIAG

CC(C)C[C@@H](/C=C/S(C)(=O)=O)NC(=O)[C@H](CC(C)C)NC(=O)[C@@H](NC(=O)N[C@H](C(=O)OC(C)(C)C)C(C)C)C(C)C  IC50 (rabbit 26S proteasome β1; caspase-like activity, inhibitor, fluorogenic substrate; purified proteasome; 30 min, 37 °C, with: fluorogenic caspase-like substrate): > 30 µM
O=C(CNc1nc(NNC(=O)c2ccc(Nc3nc(Nc4ccc(C(=O)NNc5nc(NCC(=O)NO)nc(N6CCCCC6)n5)cc4)nc(Nc4ccc(C(=O)NNc5nc(NCC(=O)NO)nc(N6CCCCC6)n5)cc4)n3)cc2)nc(N2CCCCC2)n1)NO  IC50 (Matrix metalloproteinase-9 (MMP9, Homo sapiens, UniProt P14780); enzyme activity, inhibitor, absorbance): 0.207 µM
COc1ccc(NC(=O)CN2c3cccc4cccc(c34)S2(=O)=O)cc1OCc1ccncc1  IC50 (KCNA2/KCNA1 (Homo sapiens, UniProt P16389+Q09470); potassium current, inhibitor, automated patch clamp; CHO-K1, concatemer expressing): 5.94 µM
COC(=O)N1CCC(CN2CCC(CNC(=O)c3cccc4[nH]c(C(C)C)nc34)CC2)CC1  IC50 (Solute carrier family 22 member 6 (SLC22A6, Homo sapiens, UniProt Q4U2R8); transporter uptake, inhibitor): > 10 µM
CC[C@H](C)[C@H](NC(=O)[C@H](Cc1ccccc1)NC(=O)[C@H](CC(=O)O)NC(=O)[C@H](CCCNC(=N)N)NC(=O)[C@H](C)NC(=O)[C@H](C)NC(=O)[C@H](CC(C)C)NC(=O)[C@H](CC(N)=O)NC(=O)[C@H](CC(=O)O)NC(=O)[C@H](CC(C)C)NC(=O)[C@@H](NC(=O)[C@@H](NC(=O)[C@H](CC(N)=O)NC(=O)[C@H](CCSC)NC(=O)[C@H](CCC(=O)O)NC(=O)[C@H](CC(=O)O)NC(=O)[C@H](CO)NC(=O)[C@H](Cc1ccccc1)NC(=O)[C@H](CO)NC(=O)CCNC(=O)[C@H](CC(=O)O)NC(=O)[C@H](C)NC(=O)[C@@H](N)Cc1c[nH]cn1)[C@@H](C)O)[C@@H](C)CC)C(=O)N[C@@H](CC(N)=O)C(=O)N[C@@H](Cc1c[nH]c2ccccc12)C(=O)N[C@@H](CC(C)C)C(=O)N[C@H](C(=O)N[C@@H](CCC(N)=O)C(=O)N[C@H](C(=O)N[C@@H](CCCCN)C(=O)N[C@H](C(=O)N[C@H](C(=O)N[C@@H](CC(=O)O)C(N)=O)[C@@H](C)O)[C@@H](C)CC)[C@@H](C)O)[C@@H](C)CC  IC50 (Glucagon-like peptide 2 receptor (GLP2R, Homo sapiens, UniProt O95838)): 0.038 µM
O=C1OC2(c3ccccc31)c1cc([N+](=O)[O-])c(O)c(Br)c1Oc1c2cc([N+](=O)[O-])c(O)c1Br  IC50 (Genome polyprotein, NS2B-NS3 protease (dengue virus type 2, UniProt P29990); protease activity, inhibitor, FRET): 47 µM
O=C(CCCCCCN(Cc1ccc([N+](=O)[O-])cc1)Cc1ccc([N+](=O)[O-])cc1)NO  IC50 (Histone deacetylase 2 (HDAC2, Homo sapiens, UniProt Q92769); enzyme activity, inhibitor, fluorescence): 4 µM
CC(C)NC(=O)c1ccc2nc(-c3ccccc3)cn2c1  IC50 (Protein ENL (MLLT1, Homo sapiens, UniProt Q03111)): 7 µM
CCCN(CCC)c1[nH]cnc2ncnc1-2  IC50 (Chemotaxis protein CheA (Escherichia coli, UniProt P07363); enzyme activity, inhibitor, radiometric): 268 µM
Cc1ccc(CNC(=O)[C@H](CCc2ccccc2)NC(=O)[C@H](CC(=O)NCC(C)(C)C)NC(=O)c2ccc(OCc3ccccc3)cc2)cc1  IC50 (Proteasome component C5/PSMB5; inhibitor): 0.0068 µM
COC(=O)c1ccc(Cn2sc3ccccc3c2=O)cc1  IC50 (Histone deacetylase 11 (HDAC11, Homo sapiens, UniProt Q96DB2); enzyme activity, inhibitor): > 10 µM
Cc1cc(N2CC[C@](C#N)(C3(C)CC3)C2=O)cc(C(=O)NCc2cc(F)cc(-c3cnn(C)c3)c2)n1  IC50 (Proline--tRNA ligase (Plasmodium falciparum, UniProt Q8I5R7); enzyme activity, inhibitor, absorbance): 1.77 µM
Cc1[nH]c2ccccc2c1CCNC(=O)c1cccs1  IC50 (act2/arp2 (Schizosaccharomyces pombe, UniProt P32390+Q9UUJ1); actin polymerization, inhibitor, pyrenyl-actin polymerization; with: N-WASp VCA): 24 µM
O=C(Nc1ccc(C(=O)Nc2ccc(C(=O)Nc3ccc(S(=O)(=O)O)c4cc(S(=O)(=O)O)cc(S(=O)(=O)O)c34)cc2)cc1)Nc1ccc(C(=O)Nc2ccc(C(=O)Nc3ccc(S(=O)(=O)O)c4cc(S(=O)(=O)O)cc(S(=O)(=O)O)c34)cc2)cc1  IC50 (Chymotrypsinogen A (Bos taurus, UniProt P00766); enzyme activity, inhibitor, absorbance; pH 7.4): > 180 µM
COC(=O)[C@@H](NCc1cc2ccccc2nc1OCc1ccccc1)C(C)C  IC50 (ATP synthase subunit c, whole ATP synthase complex (atpE, Pseudomonas aeruginosa, UniProt Q9HT15); ATP synthesis, inhibitor; Pseudomonas aeruginosa, inverted membrane vesicles; 10 min, with: NADH): 13.2 µM
CCCN(CC(=O)N(CCC)CC(=O)N(CCC)CC(=O)N(CCC)CC(=O)N(CC(=O)N(CCC)CC(=O)N(CCC)CC(=O)N(CCC)CC(=O)N(CCC)CC(=O)N(CC(=O)N(CCC)CC(=O)N(CCC)CC(=O)N(CCC)CC(=O)N(CCC)CC(=O)N(CC(N)=O)Cc1cn(CCCNC(=O)CCCOc2cccc(-c3nc4ccc(-c5nc6ccc(N7CCN(C)CC7)cc6[nH]5)cc4[nH]3)c2)nn1)Cc1cn(CCCNC(=O)CCCOc2cccc(-c3nc4ccc(-c5nc6ccc(N7CCN(C)CC7)cc6[nH]5)cc4[nH]3)c2)nn1)Cc1cn(CCCNC(=O)CCCOc2cccc(-c3nc4ccc(-c5nc6ccc(N7CCN(C)CC7)cc6[nH]5)cc4[nH]3)c2)nn1)C(=O)CNCc1cn(CCCNC(=O)CCCOc2cccc(-c3nc4ccc(-c5nc6ccc(N7CCN(C)CC7)cc6[nH]5)cc4[nH]3)c2)nn1  IC50 (r(CUG)109-MBNL1 complex; binding, inhibitor; with: 1.48 µM yeast tRNA): 0.21 ± 0.085 µM
CSCC[C@H](NC(=O)[C@H](CC(C)C)NC(=O)[C@H](Cc1c[nH]cn1)NC(=O)CNC(=O)[C@@H](NC(=O)[C@H](C)NC(=O)[C@H](Cc1c[nH]c2ccccc12)NC(=O)[C@H](CCC(N)=O)NC(=O)[C@H](CC(N)=O)NC(=O)[C@H](CC(=O)O)NC(=O)[C@H](CCCNC(=N)N)NC(=O)CNC(=O)CNC(=O)CNC(=O)C(C)F)C(C)C)C(N)=O (some centres unmarked)  IC50 (Gastrin-releasing peptide receptor (GRPR, Homo sapiens, UniProt P30550); ligand displacement, radioligand): 0.0559 µM
COc1ccc2c(c1OC)C(C(Cl)(Cl)Cl)N1CCc3cc4c(cc3C1=C2)OCO4 (centres unmarked)  IC50 (Pancreatic alpha-amylase (Homo sapiens, UniProt P04746); enzyme activity, inhibitor): 117 µM
COC(=O)C[C@H](NC(=O)[C@H](C)NC(=O)[C@@H](NC(=O)OCc1ccccc1)C(C)C)C(=O)CF  IC50 (Caspase-4 (Casp4, Mus musculus, UniProt P70343); enzyme activity, inhibitor, fluorescence): 0.004 µM
N=C(N)NCCC[C@@H]1NC(=O)[C@H](Cc2c[nH]c3ccccc23)NC(=O)[C@H](CCCNC(=N)N)NC(=O)[C@H](Cc2c[nH]c3ccccc23)NC(=O)[C@H](CCCNC(=N)N)NC(=O)[C@H](Cc2c[nH]c3ccccc23)NC(=O)[C@H](CCCNC(=N)N)NC(=O)[C@H](Cc2c[nH]c3ccccc23)NC(=O)[C@H](CCCNC(=N)N)NC(=O)[C@H](Cc2c[nH]c3ccccc23)NC(=O)[C@H](CCCNC(=N)N)NC(=O)[C@H](Cc2c[nH]c3ccccc23)NC(=O)[C@H](CCCNC(=N)N)NC(=O)[C@H](Cc2c[nH]c3ccccc23)NC(=O)[C@H](CCCNC(=N)N)NC(=O)[C@H](Cc2c[nH]c3ccccc23)NC(=O)[C@H](CCCNC(=N)N)NC(=O)[C@H](Cc2c[nH]c3ccccc23)NC1=O  IC50 (Tyrosine-protein kinase CSK (CSK, Homo sapiens, UniProt P41240); enzyme activity, inhibitor): 0.34 µM
Cc1ccc(CNC(=O)[C@H](CCc2ccccc2)NC(=O)[C@H](CCc2ccccc2)NC(=O)[C@@H](N)Cc2ccncc2)cc1  IC50 (Proteasome component C5/PSMB5; β5 activity, inhibitor; with: Suc-LLVY-AMC, PA28α-activated): 0.171 µM
Cc1cccc(C)c1NC(=O)CC(C)NCc1cccc2ccccc12 (centres unmarked)  IC50 (Sodium channel protein type 4 subunit alpha (SCN4A, Homo sapiens, UniProt P35499, F1586C); phasic block of sodium current, whole-cell patch clamp; HEK293; 10 Hz stimulation): 14 ± 2 µM
O=C(OC(C(F)(F)F)C(F)(F)F)N1CCC(CCn2ccc3ccncc32)CC1  IC50 (Fatty-acid amide hydrolase 1 (Faah, Rattus norvegicus, UniProt P97612); enzyme activity, inhibitor): 4.1 µM
Cc1cc(NC2CCN(C)CC2)ccc1-c1cc2c(N3CCC[C@H](C(=O)NCc4ccc(OC(F)(F)F)cc4)C3)ncnc2[nH]1  IC50 (Proto-oncogene tyrosine-protein kinase ROS (ROS1, Homo sapiens, UniProt P08922); enzyme activity, inhibitor, mobility shift): 0.00788 µM
O=C(CN1CCOc2ccccc2C1)c1ccc2[nH]c(=O)[nH]c2c1  IC50 (DNA dC->dU-editing enzyme APOBEC-3B (Homo sapiens, UniProt Q9UH17); enzyme activity, inhibitor; pH 5.5): 700 µM
N=C(NCCCSCC1OC(n2cnc3c(N)ncnc32)C(O)C1O)NCCCC(N)C(N)=O (centres unmarked)  IC50 (Histone-lysine N-methyltransferase SETD7 (SETD7, Homo sapiens, UniProt Q8WTS6); enzyme activity, inhibitor, fluorescence): > 100 µM
Cn1cc(-c2cc(N3CCCN(CC(F)F)S3(=O)=O)ccc2Oc2ccc(F)cc2F)c2cc[nH]c2c1=O  IC50 (Bromodomain-containing protein 4, BD1 (BRD4, Homo sapiens, UniProt O60885); cell-free assay, TR-FRET): 0.00939 µM
O=C(O)C(=O)NC(CSCc1ccccc1)C(=O)O (centres unmarked)  IC50 (Lysine-specific demethylase 4E (KDM4E, Homo sapiens, UniProt B2RXH2); enzyme activity, inhibitor): 300 µM
N=C(N)NCCC[C@@H](NC(=O)CCCCCNC(=O)c1ccc(-c2ccnc(N)n2)s1)C(=O)NCCCCCC(=O)N[C@H](CCCNC(=N)N)C(=O)N[C@H](CCCNC(=N)N)C(=O)N[C@H](CCCNC(=N)N)C(=O)N[C@H](CCCNC(=N)N)C(=O)N[C@H](CCCNC(=N)N)C(=O)N[C@H](CCCNC(=N)N)C(=O)N[C@H](CCCCN)C(N)=O  IC50 (cGMP-dependent protein kinase 1, isoform alpha (PRKG1, Bos taurus, UniProt P00516); binding, fluorescence intensity displacement; with: ARC-1059 and cGMP): 0.0891 µM
C[C@@H](OC(=O)c1cccc(S(=O)(=O)Nc2ccc3c(c2)OCO3)c1)C(=O)c1c[nH]c2ccccc12  IC50 (Voltage-dependent L-type calcium channel subunit alpha-1C (CACNA1C, Homo sapiens, UniProt Q13936); calcium signal, fluorescence): 15.5 µM
Cc1cc2c(NC(=O)N[C@@H]3CC(C)(C)Oc4cc(C(F)(F)F)ccc43)cccc2cn1  IC50 (TRPV1; heat-activated current, antagonist; with: heat 48 °C): 0.005 µM
CCC1(CC)C[C@@H](NC(=O)Nc2cccc3c(C)nccc23)c2cc(F)ccc2O1  IC50 (TRPV1; calcium signal, fluorescence; pH 5): > 37.5 µM

Some of these lines once more:
N=C(NCCCSCC1OC(n2cnc3c(N)ncnc32)C(O)C1O)NCCCC(N)C(N)=O (centres unmarked)  IC50 (Histone-lysine N-methyltransferase SETD7 (SETD7, Homo sapiens, UniProt Q8WTS6); enzyme activity, inhibitor, fluorescence): > 100 µM
Cc1[nH]c2ccccc2c1CCNC(=O)c1cccs1  IC50 (act2/arp2 (Schizosaccharomyces pombe, UniProt P32390+Q9UUJ1); actin polymerization, inhibitor, pyrenyl-actin polymerization; with: N-WASp VCA): 24 µM
COC(=O)c1ccc(Cn2sc3ccccc3c2=O)cc1  IC50 (Histone deacetylase 11 (HDAC11, Homo sapiens, UniProt Q96DB2); enzyme activity, inhibitor): > 10 µM
